Published values of several laboratories.
Protocols differ between the studies behind these lines.
Cell line: SN12C

Structure (SMILES) | test | setting | how to read | quantity | result
COc1ccc2c(c1)/C(=N\Nc1nnc3n1N=C(c1ccccc1)CS3)C(=O)N2 | cell growth or viability, SRB | 10 µM | – | inhibition | 21%
CC(=O)OC[C@H]1O[C@@H](Sc2sc(C(=O)c3ccc(Br)cc3)c(N)c2-c2nc3ccccc3s2)[C@H](OC(C)=O)[C@@H](OC(C)=O)[C@H]1OC(C)=O | SRB | 10 µM, 48 h | baseline: untreated | growth | 95.1%
COc1cc(CNC(=O)C[C@H](C)CCC=C(C)C)ccc1OCc1cn(-c2ccc(C#N)cc2)nn1 | SRB | 10 µM, 48 h | – | growth percent | 77.8%
CC/C=C\C/C=C\C/C=C\C/C=C\C/C=C\C/C=C\CCC(=O)Nc1ccn(C2OC(CO)C(O)C2(F)F)c(=O)n1 (stereo not drawn) | cell growth or viability, SRB | – | – | GI50 | 0.197 µM
COc1cc(CNC(=O)C[C@H](C)CCC=C(C)C)ccc1OCc1cn(-c2ccccc2)nn1 | SRB | 10 µM, 48 h | – | growth percent | 98.1%
CC(Cc1ccc(Cl)cc1)=C(c1ccc(Cl)cc1)c1ccc(OCCN(C)C)cc1 | cell growth or viability | – | – | GI50 | 4.18 µM
COc1ccc(C2=Nn3c(NN=C4C(=O)N(C)c5ccc(Br)cc54)nnc3SC2)cc1 | cell growth or viability, SRB | 10 µM | – | inhibition | 12%
COc1cc(CNC(=O)C[C@H](C)CCC=C(C)C)ccc1OCc1cn(-c2ccccc2F)nn1 | SRB | 10 µM, 48 h | – | growth percent | 76.1%
CCC(=C(c1ccc(Cl)cc1)c1ccc(OCCCN(C)C)cc1)c1ccc(OC)cc1 | cell growth or viability | – | – | GI50 | 5.05 µM

A few entries again:
Structure (SMILES) | test | setting | how to read | quantity | result
CCC(=C(c1ccc(Cl)cc1)c1ccc(OCCCN(C)C)cc1)c1ccc(OC)cc1 | cell growth or viability | – | – | GI50 | 5.05 µM
